Experimental data of several laboratories.
Every numbered part comes from another study and shows a few of its results, in no order.

Study 1
Target: Sal-like protein 4, full length isoform B (SALL4, Homo sapiens, UniProt Q9UJQ4-2, residues 1-616)
Method: universal PBM
Form: double-stranded DNA, one strand shown
Matrix: in vitro
Tested at: not given
Setting: 8-mer, flanks averaged, mean of replicates
Reading: higher = stronger binding
Target sequence (chain): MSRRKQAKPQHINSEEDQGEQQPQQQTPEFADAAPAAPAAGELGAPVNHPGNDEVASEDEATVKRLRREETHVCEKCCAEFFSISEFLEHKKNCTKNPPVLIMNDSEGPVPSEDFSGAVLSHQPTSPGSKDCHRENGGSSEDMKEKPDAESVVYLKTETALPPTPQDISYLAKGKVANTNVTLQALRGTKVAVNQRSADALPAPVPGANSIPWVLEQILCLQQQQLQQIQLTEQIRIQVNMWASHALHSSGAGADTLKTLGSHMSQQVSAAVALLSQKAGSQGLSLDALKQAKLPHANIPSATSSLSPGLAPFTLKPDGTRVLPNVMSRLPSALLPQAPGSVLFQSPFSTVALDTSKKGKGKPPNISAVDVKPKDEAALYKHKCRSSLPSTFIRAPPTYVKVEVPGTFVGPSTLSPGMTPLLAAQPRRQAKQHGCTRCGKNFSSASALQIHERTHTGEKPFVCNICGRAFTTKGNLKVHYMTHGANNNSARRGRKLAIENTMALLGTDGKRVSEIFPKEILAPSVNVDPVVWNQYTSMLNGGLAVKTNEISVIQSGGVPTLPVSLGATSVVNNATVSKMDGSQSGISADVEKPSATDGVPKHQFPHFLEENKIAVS
| Sequence | E-score |
| --- | --- |
| CCGGTCTC | -0.322 |
| AATCAGTC | -0.0474 |
| GGCATGTA | 0.112 |
| TACGGCAA | 0.00493 |
| CGCCAATA | 0.166 |
| GCTTGATA | 0.133 |
| CTCTAGCC | -0.064 |
| AAGTCTAG | 0.0464 |
| ATCGCGGC | -0.172 |
| CTCCTTCC | -0.122 |
| CACACACG | -0.134 |
| GGCCTCAA | -0.167 |
| ATGTCAAG | 0.093 |
| GCATTCCA | -0.0124 |
| AACTCGAT | 0.0901 |
| CTAAAATC | -0.00983 |
| AGTGAGTC | -0.161 |
| ATTGGGGC | -0.0842 |
| GTATCCAA | 0.0655 |
| GTGCACCA | -0.0247 |
| CAACGGCC | -0.213 |
| ACAGAAAA | 0.0719 |
| GAATAGCC | -0.207 |

Study 2
Target: RNA binding protein fox-1 homolog 2, RRM domain, GST-SBP tag (RBFOX2, Homo sapiens, UniProt O43251-10, residues 100-194)
Method: RNA Bind-n-Seq
Form: RNA
Matrix: in vitro
Tested at: 365 nM
Setting: natural RNA segment, single round, ends assumed
Reference: no-protein control
Reading: higher = stronger binding
Construct (chain): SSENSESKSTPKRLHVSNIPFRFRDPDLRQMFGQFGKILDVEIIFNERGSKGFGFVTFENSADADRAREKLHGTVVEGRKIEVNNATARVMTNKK
| Sequence | RBNS enrichment (R) |
| --- | --- |
| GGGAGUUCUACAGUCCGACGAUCCCCACACCUGGGCAGGCUGUUGGUGUCUCCUUGGUCCUUAGGCAGAUACUCCCCUGAGUCCCCGAUCUAGGGCCAGCUGCAGAGGGCUCUCUCUAGGCAGAGCGUUCCUGUGGAAUUCUCGGGUGCCAA | 0.235 |
| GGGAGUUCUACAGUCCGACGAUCUUUAUAUAGCACAGGCUCUAGAAUCAGAUUAAGUAGGUUCAAAUACCAGUUCUGCCAGUAACUGGUUUUAGAACCUUGGGCAAGUUAAAGAAUGUCUCCCAGCCUCAGUUUGGAAUUCUCGGGUGCCAA | 0.894 |
| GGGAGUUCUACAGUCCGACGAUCUCUCCAUGUGUGAAGUAGCUUCCUCCCUCAGCCUGCAAGGGUCCGAUUUGCCAUCGAAAGACGACCUCUACUUUUUUCUUUUGUAUUUUGAUAAACACUGAAGAAGCUGGUGGAAUUCUCGGGUGCCAA | 0.571 |
| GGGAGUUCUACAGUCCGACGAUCUUCCACCCGCUCUCUGUAUUUUCAAUGUUUUUCUCUCAGCGCCUUGCCUUAACAAUCCCCAGACAGUGUUCUCUCAAGCAGUGUUCCAGACUUGUUGGGUGUGAAGAUAAUGGAAUUCUCGGGUGCCAA | 0.776 |
| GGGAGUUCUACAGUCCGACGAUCACCAAUAAUACUUGACGGAAGGCUCAGUAAUUAGUUAUGAAUAUGGAUAUCCUCAAUUCUUAAGACAGCUUGUAAAUGUAUUUGUAAAAAUUGUAUAUAUUUUUACAGAAUGGAAUUCUCGGGUGCCAA | 1.17 |
| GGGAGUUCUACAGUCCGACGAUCUGACGUGUCCAUUCUGAUAUAUGCAGUCAUUUUGAAUUUGGUCUGUGCCUUCUCUGGAUCCCUCCCUAGCCUGUGCCCCGAGCCGUCCAUAGAGAGUUUGUAGGUAUUUCUGGAAUUCUCGGGUGCCAA | 1.11 |
| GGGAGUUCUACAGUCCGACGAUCCACCCCCACAGACAUGGACUGGCUAUGAUCCUAGCUGGAAUAGCAGCACCUGCCUUUCCCUCCUGGGUCUCCUUGCCGCGUGCUGAGCCGAGGCAGGCCUGCAGGGCCUGUGGAAUUCUCGGGUGCCAA | 0.259 |
| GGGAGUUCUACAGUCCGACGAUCACAUCUUUUAAAUUAAGCCACUGUGCUGCCUUAGAUUCCGUGGGUCAUGAGCCAUGAGUCCUGGGACAUCUGAGGAUUGGGAUUCUUUGUUCACCCCGCAGAUAGUUAAUUGGAAUUCUCGGGUGCCAA | 0.384 |
| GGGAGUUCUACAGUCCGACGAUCCUGGGCUGACCCCGGUGGCGGCCCCAGCACCUCAGCCUGCACAGUGUCCCCCAGGUUCCGAAGAAGAUGCUCCAGCAACACAGCCUGGGCCCCAGCUCGCGGGACCCGACUGGAAUUCUCGGGUGCCAA | 0.444 |
| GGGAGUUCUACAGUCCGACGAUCUCUCCUUUUCCAGCAUCCCUAUCCUAUGGUGCUUUGGUGGUGAACUAUGGCAGUCCUGACUUGCUGAUGACCAUAUGCUGGUGACCUACAAAUCGGGAUCCUGCCAUAUGUGGAAUUCUCGGGUGCCAA | 1.01 |
| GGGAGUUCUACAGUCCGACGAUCGCCCUGCUCAGGAUAAUGUGCUAUGAGCCCUCAUCUGACUCUCAGUUUGUACUGGAGAACCAUACAGGACUUACCGCACCUUACCCCAUCCACUACCAUGUGCACUGACUUGGAAUUCUCGGGUGCCAA | 0.284 |
| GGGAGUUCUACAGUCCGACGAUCUUCUCUGCUGGGAAUCUACCCCUUUCUGGAGGAGAAACCCAUUCCACCUUAAUAACUUUAUUGUAAUGUGAGAAACACAAAACAAAGUUUACUUUUUUGACUCUAAGCUGUGGAAUUCUCGGGUGCCAA | 0.309 |

Study 3
Target: Ras GTPase-activating protein-binding protein 1, RRM domain (G3BP1, Homo sapiens, UniProt Q13283)
Sequence of UniProt Q13283 (whole entry, looked up): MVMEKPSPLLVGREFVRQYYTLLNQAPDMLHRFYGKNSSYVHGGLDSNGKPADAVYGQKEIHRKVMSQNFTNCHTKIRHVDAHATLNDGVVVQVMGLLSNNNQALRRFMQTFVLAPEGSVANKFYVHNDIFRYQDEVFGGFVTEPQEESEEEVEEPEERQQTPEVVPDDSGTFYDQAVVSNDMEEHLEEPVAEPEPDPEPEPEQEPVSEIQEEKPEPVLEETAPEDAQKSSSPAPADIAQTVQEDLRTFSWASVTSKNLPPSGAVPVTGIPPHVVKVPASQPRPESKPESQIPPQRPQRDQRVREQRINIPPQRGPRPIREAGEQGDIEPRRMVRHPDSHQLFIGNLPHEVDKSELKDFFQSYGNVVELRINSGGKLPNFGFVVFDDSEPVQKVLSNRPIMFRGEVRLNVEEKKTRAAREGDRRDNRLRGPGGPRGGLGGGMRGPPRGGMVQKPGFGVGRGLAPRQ
Method: RNA Bind-n-Seq
Form: RNA
Matrix: in vitro
Tested at: 1 µM
Setting: whole 134-nt RNA, ends assumed
With: 150 mM KCl
Reference: input library
Reading: higher = stronger binding
| Sequence | log2 enrichment |
| --- | --- |
| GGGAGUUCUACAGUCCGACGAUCGUAGAAAUUCAUGUAUAAAUGGAACCAUAUAGUACAUACAUAUCAUACUCUUAGGUCUGGCAAAUAUUUGAGGUUCAUCCAUAUUUUAUAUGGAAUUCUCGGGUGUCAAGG | -0.223 |
| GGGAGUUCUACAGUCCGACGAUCGCAGGAAGUAAAAACAAAUGGAAAUGCUUCGGAUAGUGGCAGCGGUGGGGGUUGCUAAGGAAAGGGUGGGAUGGGAGUGGGUAAAGAGUUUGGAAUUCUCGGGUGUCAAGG | 0.866 |
| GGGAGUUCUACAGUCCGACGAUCUUCCUCAAGUCCUGUGCUACACAUCGUAUGUACCGAAUCGGCGGCGGGCGGAAAGUAUUAUGUUACGCCGUUCGGAUCUGCACUUCCAGCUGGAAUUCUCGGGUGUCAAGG | -0.247 |
| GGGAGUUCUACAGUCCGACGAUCCAAGUCCUGUGCUACACAUCGUAUGUACCGAAUCGGCCCCGGGCCCCGGGCCCCGGAAAGUAUUAUGUUACGCCGUUCGGAUCUGCACUUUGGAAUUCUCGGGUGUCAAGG | -1.29 |
| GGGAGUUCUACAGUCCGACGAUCCUGUGCUACACAUCGUAUGUACCGAAUCGGGGUUUUUUUGGGUUUUUUUGGUUUUUUUGGGGAAAGUAUUAUGUUACGCCGUUCGGAUCUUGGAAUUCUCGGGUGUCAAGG | -0.291 |
| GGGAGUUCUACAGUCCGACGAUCGUCCUGUGCUACACAUCGUAUGUACCGAAUCGGGGAAAGGGGUUUUUUUGGGGUGGGGAAAGUAUUAUGUUACGCCGUUCGGAUCUGCACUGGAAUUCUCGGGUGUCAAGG | 1.01 |
| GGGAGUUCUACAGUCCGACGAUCGUCCUGUGCUACACAUCGUAUGUACCGAAUCGGGUUUUUGGGUUUGGGUUUUUUUGGGAAAGUAUUAUGUUACGCCGUUCGGAUCUGCACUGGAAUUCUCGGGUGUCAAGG | 0.017 |
| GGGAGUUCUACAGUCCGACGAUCUUGUGGAAAACCCACAUGCUCCUCAGAAAGAUGAUGCCCUGGUGAUCACACACUACAACCGGACCCGACAGCAGGAAGAGAUGCUGGGGCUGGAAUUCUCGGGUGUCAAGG | -0.0214 |
| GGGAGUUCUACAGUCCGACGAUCUGUGGGUCCUCCUGCACCUGGUGCUGGCCUUCCUGUCCCUGCGCUCUUUGACAGCCUCCUGACCUGUAGGACGAGGGAUUCCUUGUUCUUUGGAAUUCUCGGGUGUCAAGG | -0.298 |
| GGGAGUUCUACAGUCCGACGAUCAAAAAAAGUGUGUAUUAGGAGGAGAGAGAGGAAAAAAAGAGGAAAGAAGGAAAAAAAAAAGAAUUAAAAAAAAAAAAAAGAAAAACAGAAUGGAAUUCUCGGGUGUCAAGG | -0.0836 |

Study 4
Target: Histone acetyltransferase KAT6A, winged helix 2, GST fusion (KAT6A, Homo sapiens, UniProt Q92794, residues 85-181)
Method: protein binding microarray
Form: double-stranded DNA, one strand shown
Matrix: in vitro
Tested at: not given
Setting: 8-mer, flanks averaged, mean of 2 arrays, mostly near background
Reference: not given
Reading: higher = stronger binding
Target sequence (chain): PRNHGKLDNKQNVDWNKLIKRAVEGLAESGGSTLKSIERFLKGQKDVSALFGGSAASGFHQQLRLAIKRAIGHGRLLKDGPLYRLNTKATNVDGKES
| Sequence | E-score |
| --- | --- |
| AGGACTAT | -0.202 |
| GGGCGCCA | 0.198 |
| CGAGATAA | 0.145 |
| CAACTTTA | 0.0203 |
| AATCGAGA | 0.0503 |
| AACGTTGA | -0.129 |
| CGCAGCCA | 0.144 |
| ATGATAGG | -0.098 |
| GTACCCTA | -0.0419 |
| AACCCCCT | -0.124 |
| CATGTAAG | -0.0869 |
| GACGAACC | 0.0216 |
| CGGACAAG | -0.0121 |
| CACGCTAG | -0.0917 |
| AGGGCTTA | -0.122 |
| ACCGACTA | -0.237 |
| ATAGCAGG | 0.0979 |
| ATCGAACG | -0.127 |
| ACGCCCCC | 0.0208 |
